Experimental data from different studies.
Each line is one published result; not all experiments were run side by side.
Chain of UniProt P46109 (whole entry, looked up): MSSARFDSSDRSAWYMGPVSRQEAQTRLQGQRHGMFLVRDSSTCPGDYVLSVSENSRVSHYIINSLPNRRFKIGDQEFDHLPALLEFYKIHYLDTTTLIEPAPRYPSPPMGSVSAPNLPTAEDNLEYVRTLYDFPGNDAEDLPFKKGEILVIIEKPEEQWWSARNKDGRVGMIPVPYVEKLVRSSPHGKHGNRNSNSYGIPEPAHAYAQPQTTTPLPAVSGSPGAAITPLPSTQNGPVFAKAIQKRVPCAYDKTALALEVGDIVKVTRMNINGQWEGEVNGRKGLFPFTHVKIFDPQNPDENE

O=C(O)Cc1c[nH]cn1 — inhibition (Nedd8-cullin1 interaction; neddylation, AlphaScreen; 100 µM): -36%
C[n+]1cn([C@@H]2O[C@H](COP(=O)([O-])OP(=O)(O)OP(=O)(O)OC[C@H]3O[C@@H](n4cnc5c(=O)[nH]c(N)nc54)[C@H](O)[C@@H]3O)[C@@H](O)[C@H]2O)c2nc(N)[nH]c(=O)c21 — time to complete hydrolysis (Saccharomyces cerevisiae Dcs1p; substrate; concentration not given): ≤ 14 h
OC1CCN(c2ncnc3[nH]cc(-c4cccc(Cl)c4)c23)CC1 — MOB1 phosphorylation (MOB1 (human); Western blot, measured: phospho-MOB1 Thr35; HEK293; concentration not given, with: H2O2): decreased
Oc1cc(Cl)ccc1Oc1ccc(Cl)cc1Cl — cross-reactivity (bivalent nanobody T1-T1 (Bactrian camel); ELISA, IC50-based; concentration not given, coating antigen T1/H1-BSA): 100%
Cn1c(=O)ccc2ccc(F)c(CCNC[C@H]3CN(c4cnc5c(n4)NC(=O)CO5)C(=O)O3)c21 — IC50 (human DNA topoisomerase II; decatenation activity, inhibitor): > 120 µM
CCCCCCCCCCCCCC(=O)O[C@@H]1[C@@H](C)[C@@]2(O)[C@@H](C=C(CO)C[C@]3(O)C(=O)C(C)=C[C@@H]23)[C@@H]2C(C)(C)[C@]12OC(C)=O — IC50 (mouse phorbol ester receptor; radioligand binding): 0.00108 µM
Cc1nc2ccc(CN(C)c3ccc(C(=O)N[C@@H](CCC(=O)O)C(=O)O)s3)cc2c(=O)[nH]1 — maximum inhibition (human coronavirus OC43; virus-induced cell killing; MRC-5; maximum over 10 doses): 0%
c1ccc(C(NCCNC(c2ccccc2)c2ccccc2)c2ccccc2)cc1 — inhibition (KATP potassium channel, hamster; binding; 10 µM, Eurofins selectivity panel): 6%
O=C(Nc1cccnn1)N1CCN([C@@H]2CCOc3cc(C(F)(F)F)ccc32)CC1 — inhibition (androgen receptor (human); binding; 20 µM): 2%
C[C@H]1CN(c2n[nH]c3nc(N[C@H]4CC[C@H](NS(=O)(=O)CCC(F)(F)F)CC4)ncc23)CCO1 — relative abundance (Crk-like protein (Homo sapiens, UniProt P46109); competitor, Kinobeads competition; human cell extract; 0.16 µM; baseline: vehicle): 1.03
O=c1ccn([C@@H]2O[C@H](CO)[C@@H](O)[C@H]2O)c(=S)[nH]1 — IC50 (human cytochrome c oxidase subunit I; measured: cytochrome c oxidase subunit I; HepG2; 120 h): > 50 µM
C=C[C@H]1CN2CC[C@]3(C(=O)Nc4ccccc43)[C@@H]2C[C@@H]1/C(=C\OC)C(=O)OC — inhibition (NLRP3 inflammasome (mouse); mouse BMDM; 10 µM): 36.9%
C[C@H](C(=O)N[C@H]1COc2ccccc2[C@@H]1S(C)(=O)=O)c1ccc(F)cc1 — inhibition (NMDA receptor, rat, Agonism site; binding; 10 µM, Eurofins selectivity panel): -1%
Cn1c(=O)ccc2ccc(F)c(CCNC[C@H]3CN(c4ccc5c(n4)NC(=O)CO5)C(=O)O3)c21 — IC50 (human DNA topoisomerase II; decatenation activity, inhibitor): > 120 µM
NCCc1ccccc1 — ΔTm (SAR11_0271 protein (Candidatus Pelagibacter sp.); thermal stabilisation, differential scanning fluorimetry): 8.1 °C
CCN(CC)c1ccn2c(=O)n(CCOC(=O)NCc3cccc(-c4c[nH]cn4)c3)c(=O)nc2c1 — kinetic stabilization (human transthyretin WIL* T46L/F49Y, fluorescein-labelled; fluorescence polarization): inactive
CC1=C(/C=C/C(C)=C/C=C/C(C)=C\C(=O)O)C(C)(C)CCC1 — maximum inhibition (human coronavirus OC43; virus-induced cell killing; MRC-5; maximum over 10 doses): 0%
NCCc1ccc(O)cc1 — ΔTm (SAR11_0271 protein (Candidatus Pelagibacter sp.); thermal stabilisation, differential scanning fluorimetry): 7.3 °C
CC(C)(O)C(=O)Nc1ccc([N+](=O)[O-])c(C(F)(F)F)c1 — AUC agonist score (androgen receptor pathway; agonist; concentration not given; direction not given): 0.00113
Cn1cccc1-c1cccnc1 — inhibition (sigma receptor 1; radioligand binding; 50 µM): -17.8%

A few entries again:
Cn1c(=O)ccc2ccc(F)c(CCNC[C@H]3CN(c4ccc5c(n4)NC(=O)CO5)C(=O)O3)c21 — IC50 (human DNA topoisomerase II; decatenation activity, inhibitor): > 120 µM
NCCc1ccccc1 — ΔTm (SAR11_0271 protein (Candidatus Pelagibacter sp.); thermal stabilisation, differential scanning fluorimetry): 8.1 °C
CCN(CC)c1ccn2c(=O)n(CCOC(=O)NCc3cccc(-c4c[nH]cn4)c3)c(=O)nc2c1 — kinetic stabilization (human transthyretin WIL* T46L/F49Y, fluorescein-labelled; fluorescence polarization): inactive
